Measured values of several laboratories.
Protocols differ between the studies behind these lines. Numbers after ± are the reported error.
Organism: Escherichia coli

With `CC1(C)SC2C(NC(=O)C(NC(=O)C3=C(O)C(Cc4ccccc4)NC3=O)c3ccccc3)C(=O)N2C1C(=O)O` (stereo not drawn) the MIC was 100 µg/mL (broth microdilution; BW25113, Mueller-Hinton broth; 18 h, without clavulanic acid).
For `C(=Nc1ncn[nH]1)c1ccncc1`, the MIC was > 256 µg/mL (microbial growth, broth dilution; ATCC25922).
For `CCOC(=O)c1c(N)csc1-c1cn(-c2ccccc2)nc1-c1ccc(C)cc1`, the MIC was 0.122 ± 0.2 µg/mL (broth microdilution; clinical urinary isolate; compound gamma-irradiated 10 kGy).
`CCc1cc(=O)c2c(OCC(O)CN(CC)CC)c3ccoc3c(OC)c2o1` (stereo not drawn) gave an MIC of > 256 µg/mL (microbial growth, broth dilution; ATCC25; 19 h).
For `CCN(CC)c1ccc(C=Nc2cc(C)c(Br)cn2)c(O)c1`, the MIC was > 256 µg/mL (microbial growth, broth dilution; ATCC25922).
With `C[C@H]1COc2c(N3CCN(C)CC3)c(F)cc3c(=O)c(C(=O)O)cn1c23` the MIC was 0.024 µg/mL (microbial growth, broth dilution; ATCC25922).
The MIC of `CCc1cc(=O)c2c(OCC(O)CN3CCOCC3)c3ccoc3c(OC)c2o1` (stereo not drawn) is reported as > 256 µg/mL (microbial growth, broth dilution; ATCC25; 19 h).
For `CCN(CC)c1ccc(C=O)c(O)c1`, the MIC was > 256 µg/mL (microbial growth, broth dilution; ATCC25922).
The MIC of `CC[C@@H](C)[C@@H](NC(=O)[C@@H](Cc1c[nH]c2ccccc12)NC(=O)[C@H](N)CCCNC(=N)N)C(=O)N[C@H](CCCNC(=N)N)C(=O)N[C@H](Cc1c[nH]c2ccccc12)C(=O)N[C@@H](C(=O)N[C@H](Cc1c[nH]c2ccccc12)C(=O)N[C@H](CCCNC(=N)N)C(=O)N[C@H](CCCCN)C(=O)N[C@H](CCCCN)C(=O)N[C@H](CC(C)C)C(=O)N[C@H](CCCNC(=N)N)C(N)=O)C(C)C` is reported as 3.12 to 6.25 µg/mL (broth microdilution; ATCC 25922, LB medium; 16 to 20 h, 37 °C).
For `CNC(C)C1CCC(N)C(OC2C(N)CC(N)C(OC3OCC(C)(O)C(NC)C3O)C2O)O1` (stereo not drawn), the MIC was 0.5 µg/mL (microbial growth, broth dilution; ATCC25922).
With `CN(C)c1ncc(O)c2c1C[C@H]1C[C@H]3[C@H](N(C)C)C(O)=C(C(N)=O)C(=O)[C@@]3(O)C(O)=C1C2=O.Cl.Cl` the MIC was 0.13 µg/mL (CLSI broth dilution; ATCC 25922).
The MIC of `CC[C@H](C)[C@H](NC(=O)[C@H](CCCNC(=N)N)NC(=O)CNC(=O)[C@H](CC(C)C)NC(=O)[C@H](Cc1ccccc1)NC(=O)[C@H](CCCCN)NC(=O)[C@H](CO)NC(=O)[C@H](Cc1ccccc1)NC(=O)[C@H](Cc1c[nH]c2ccccc12)NC(=O)[C@H](CCC(N)=O)NC(=O)[C@@H](NC(=O)[C@@H](N)Cc1ccccc1)C(C)C)C(=O)N[C@@H](CC(C)C)C(N)=O` is reported as 12.5 to 25 µg/mL (ATCC 25922; 1 h, 37 °C, non-dividing cells in PBS).
With `O=C(O)c1ccc(C=Nc2ncn[nH]2)cc1` the MIC was > 256 µg/mL (microbial growth, broth dilution; ATCC25922).
`CC1(C)SC2C(NC(=O)C(NC(=O)C3=C(O)C(Cc4ccc(O)cc4)NC3=O)c3ccccc3)C(=O)N2C1C(=O)O` (stereo not drawn) gave an MIC of 12.5 µg/mL (broth microdilution; BW25113, Mueller-Hinton broth; together with: CCCP 50 µg/mL).
With `KFFKFFKFFK (peptide-PNA conjugate, scrambled)` the MIC was > 10 µM (broth microdilution; peptide, UPEC 536, Mueller-Hinton broth; 24 h).

A few entries again:
For `CCOC(=O)c1c(N)csc1-c1cn(-c2ccccc2)nc1-c1ccc(C)cc1`, the MIC was 0.122 ± 0.2 µg/mL (broth microdilution; clinical urinary isolate; compound gamma-irradiated 10 kGy).
`CCc1cc(=O)c2c(OCC(O)CN(CC)CC)c3ccoc3c(OC)c2o1` (stereo not drawn) gave an MIC of > 256 µg/mL (microbial growth, broth dilution; ATCC25; 19 h).
For `CCN(CC)c1ccc(C=Nc2cc(C)c(Br)cn2)c(O)c1`, the MIC was > 256 µg/mL (microbial growth, broth dilution; ATCC25922).
